# Assay results from different studies.
# A part holds a random share of what one study measured.
# Sequence of UniProt P51451 (whole entry, looked up): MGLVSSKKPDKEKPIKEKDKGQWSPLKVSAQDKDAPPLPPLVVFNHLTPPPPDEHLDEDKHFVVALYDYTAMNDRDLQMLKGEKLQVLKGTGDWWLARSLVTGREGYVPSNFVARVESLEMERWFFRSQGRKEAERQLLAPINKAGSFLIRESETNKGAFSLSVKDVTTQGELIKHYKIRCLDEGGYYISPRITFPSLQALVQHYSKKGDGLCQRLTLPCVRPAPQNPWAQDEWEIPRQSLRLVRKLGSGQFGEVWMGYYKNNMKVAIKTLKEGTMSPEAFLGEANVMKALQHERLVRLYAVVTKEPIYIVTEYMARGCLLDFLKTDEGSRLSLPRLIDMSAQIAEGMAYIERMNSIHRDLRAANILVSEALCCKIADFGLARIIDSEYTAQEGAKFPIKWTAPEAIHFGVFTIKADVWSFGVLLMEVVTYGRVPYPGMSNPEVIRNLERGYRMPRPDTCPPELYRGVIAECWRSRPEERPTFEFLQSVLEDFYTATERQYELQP
# Sequence of UniProt P11802 (whole entry, looked up): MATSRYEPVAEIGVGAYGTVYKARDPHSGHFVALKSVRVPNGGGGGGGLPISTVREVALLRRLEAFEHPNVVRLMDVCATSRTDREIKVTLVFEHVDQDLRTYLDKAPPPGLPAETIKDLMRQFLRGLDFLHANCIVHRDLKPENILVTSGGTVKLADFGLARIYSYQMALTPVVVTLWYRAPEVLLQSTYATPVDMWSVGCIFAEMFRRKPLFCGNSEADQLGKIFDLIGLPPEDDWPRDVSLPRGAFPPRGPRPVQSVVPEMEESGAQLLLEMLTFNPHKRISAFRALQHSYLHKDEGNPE
# Sequence of UniProt P30530 (whole entry, looked up): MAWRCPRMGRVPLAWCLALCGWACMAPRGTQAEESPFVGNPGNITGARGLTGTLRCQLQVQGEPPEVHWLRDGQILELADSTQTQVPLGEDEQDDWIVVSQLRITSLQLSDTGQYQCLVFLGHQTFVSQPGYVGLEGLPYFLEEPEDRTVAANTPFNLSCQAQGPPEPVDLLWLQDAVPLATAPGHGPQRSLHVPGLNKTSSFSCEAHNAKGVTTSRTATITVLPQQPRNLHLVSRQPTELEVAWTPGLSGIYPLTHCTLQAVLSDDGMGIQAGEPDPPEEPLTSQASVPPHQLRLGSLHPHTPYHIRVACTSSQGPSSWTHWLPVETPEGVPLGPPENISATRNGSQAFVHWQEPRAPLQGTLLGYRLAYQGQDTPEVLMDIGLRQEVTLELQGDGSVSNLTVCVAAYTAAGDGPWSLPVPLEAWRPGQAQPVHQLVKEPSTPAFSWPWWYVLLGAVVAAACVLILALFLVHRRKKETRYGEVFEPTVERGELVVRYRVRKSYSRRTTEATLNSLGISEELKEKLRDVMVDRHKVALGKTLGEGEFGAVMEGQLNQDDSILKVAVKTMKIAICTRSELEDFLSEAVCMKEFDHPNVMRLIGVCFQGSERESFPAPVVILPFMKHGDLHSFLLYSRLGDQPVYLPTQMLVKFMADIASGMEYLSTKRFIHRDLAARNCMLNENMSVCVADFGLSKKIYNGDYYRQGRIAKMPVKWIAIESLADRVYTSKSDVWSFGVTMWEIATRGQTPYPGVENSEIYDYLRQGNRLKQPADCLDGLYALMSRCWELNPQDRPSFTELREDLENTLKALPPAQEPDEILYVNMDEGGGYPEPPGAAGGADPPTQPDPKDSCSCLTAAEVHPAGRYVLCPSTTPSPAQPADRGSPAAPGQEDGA
# Sequence of UniProt P06493 (whole entry, looked up): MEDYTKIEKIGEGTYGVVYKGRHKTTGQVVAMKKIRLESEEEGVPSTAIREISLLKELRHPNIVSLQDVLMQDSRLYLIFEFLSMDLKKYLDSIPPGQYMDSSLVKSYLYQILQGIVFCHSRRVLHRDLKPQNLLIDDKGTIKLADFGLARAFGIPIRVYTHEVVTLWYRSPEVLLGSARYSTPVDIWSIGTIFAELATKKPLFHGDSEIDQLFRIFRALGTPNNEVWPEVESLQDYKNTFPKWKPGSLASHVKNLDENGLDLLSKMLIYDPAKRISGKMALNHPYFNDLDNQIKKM
# Sequence of UniProt Q96RR4 (whole entry, looked up): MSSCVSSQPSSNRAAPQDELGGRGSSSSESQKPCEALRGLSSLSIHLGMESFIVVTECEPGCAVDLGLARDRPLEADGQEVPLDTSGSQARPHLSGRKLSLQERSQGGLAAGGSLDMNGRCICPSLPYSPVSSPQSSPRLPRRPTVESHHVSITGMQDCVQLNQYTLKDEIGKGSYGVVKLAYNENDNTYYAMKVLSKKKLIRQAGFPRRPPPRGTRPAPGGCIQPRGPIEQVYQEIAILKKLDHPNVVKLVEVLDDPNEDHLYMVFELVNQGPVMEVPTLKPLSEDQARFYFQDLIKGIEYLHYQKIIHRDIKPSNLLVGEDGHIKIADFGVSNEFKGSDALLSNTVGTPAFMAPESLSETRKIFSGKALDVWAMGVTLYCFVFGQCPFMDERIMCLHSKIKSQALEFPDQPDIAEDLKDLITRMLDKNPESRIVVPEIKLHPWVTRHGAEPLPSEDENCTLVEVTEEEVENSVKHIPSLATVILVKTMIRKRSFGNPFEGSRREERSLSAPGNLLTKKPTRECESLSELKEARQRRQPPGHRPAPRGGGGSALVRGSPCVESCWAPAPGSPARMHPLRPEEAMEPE
# Sequence of UniProt O75676 (whole entry, looked up): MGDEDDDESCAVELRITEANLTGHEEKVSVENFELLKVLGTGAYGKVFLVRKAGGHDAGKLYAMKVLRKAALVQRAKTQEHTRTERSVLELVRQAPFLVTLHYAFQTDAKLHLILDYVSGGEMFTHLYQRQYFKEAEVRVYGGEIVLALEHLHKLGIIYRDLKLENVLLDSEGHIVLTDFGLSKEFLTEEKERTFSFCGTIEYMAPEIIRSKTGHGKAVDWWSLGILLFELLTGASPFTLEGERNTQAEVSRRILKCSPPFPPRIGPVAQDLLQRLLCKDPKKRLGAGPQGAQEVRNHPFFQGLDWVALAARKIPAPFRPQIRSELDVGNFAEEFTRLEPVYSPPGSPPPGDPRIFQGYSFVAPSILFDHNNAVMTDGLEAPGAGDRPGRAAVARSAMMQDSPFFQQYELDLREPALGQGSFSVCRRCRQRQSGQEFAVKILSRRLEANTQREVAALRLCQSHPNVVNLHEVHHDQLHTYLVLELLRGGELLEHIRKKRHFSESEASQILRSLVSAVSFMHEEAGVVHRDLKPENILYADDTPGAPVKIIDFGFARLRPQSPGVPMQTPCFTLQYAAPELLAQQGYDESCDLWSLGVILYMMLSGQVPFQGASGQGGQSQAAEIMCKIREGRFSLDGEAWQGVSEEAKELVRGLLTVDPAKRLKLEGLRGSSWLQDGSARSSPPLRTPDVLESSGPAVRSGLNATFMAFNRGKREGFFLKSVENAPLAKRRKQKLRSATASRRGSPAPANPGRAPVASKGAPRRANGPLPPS
# Sequence of UniProt Q13554 (whole entry, looked up): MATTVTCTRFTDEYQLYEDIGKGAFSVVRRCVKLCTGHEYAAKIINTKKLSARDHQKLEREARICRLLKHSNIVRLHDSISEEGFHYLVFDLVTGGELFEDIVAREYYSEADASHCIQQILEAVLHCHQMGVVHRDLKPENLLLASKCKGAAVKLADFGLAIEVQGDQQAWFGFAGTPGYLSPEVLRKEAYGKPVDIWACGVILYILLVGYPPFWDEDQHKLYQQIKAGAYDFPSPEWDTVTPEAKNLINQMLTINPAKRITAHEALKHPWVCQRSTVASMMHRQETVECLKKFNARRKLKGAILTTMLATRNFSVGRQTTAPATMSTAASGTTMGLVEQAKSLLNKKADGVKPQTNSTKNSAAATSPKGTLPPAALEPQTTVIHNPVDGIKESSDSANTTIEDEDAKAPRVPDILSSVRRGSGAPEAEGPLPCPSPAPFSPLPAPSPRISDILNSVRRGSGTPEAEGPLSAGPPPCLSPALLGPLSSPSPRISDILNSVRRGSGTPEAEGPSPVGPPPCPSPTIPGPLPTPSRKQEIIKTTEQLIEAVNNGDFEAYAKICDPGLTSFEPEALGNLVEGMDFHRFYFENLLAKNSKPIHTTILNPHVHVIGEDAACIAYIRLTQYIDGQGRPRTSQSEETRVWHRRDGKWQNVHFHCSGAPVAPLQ
# Sequence of UniProt Q04771 (whole entry, looked up): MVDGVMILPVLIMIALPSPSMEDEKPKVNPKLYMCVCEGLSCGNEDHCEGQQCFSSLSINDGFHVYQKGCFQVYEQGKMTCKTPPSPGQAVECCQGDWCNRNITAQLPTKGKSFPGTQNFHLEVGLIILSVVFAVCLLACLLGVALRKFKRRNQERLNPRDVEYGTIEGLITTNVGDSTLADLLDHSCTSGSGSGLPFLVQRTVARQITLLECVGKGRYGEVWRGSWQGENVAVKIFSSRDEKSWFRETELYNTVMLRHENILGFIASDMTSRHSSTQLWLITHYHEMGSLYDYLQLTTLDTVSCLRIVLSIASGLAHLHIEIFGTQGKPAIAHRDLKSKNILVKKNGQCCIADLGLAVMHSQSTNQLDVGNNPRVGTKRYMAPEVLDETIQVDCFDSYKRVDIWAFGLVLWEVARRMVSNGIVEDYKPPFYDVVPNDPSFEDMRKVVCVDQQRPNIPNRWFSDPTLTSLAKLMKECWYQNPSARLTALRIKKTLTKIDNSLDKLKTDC

# Block 1 — read-out: enzyme activity; mode: inhibitor; concentration: 0.5 µM; baseline: control
# Compound: NC(=O)c1cccc(-c2cc(Nc3ccc(OC(F)(F)F)cc3)ncn2)c1
target,remaining activity [%]
"WNK3 (Homo sapiens, UniProt Q9BYP7)",105
"PHKG1 (Homo sapiens, UniProt Q16816)",99.2
"STK16 (Homo sapiens, UniProt O75716)",81.8
"MAP4K4 (Homo sapiens, UniProt O95819)",104
"MAPKAPK3 (Homo sapiens, UniProt Q16644)",98
"PDPK1 (Homo sapiens, UniProt O15530)",98.3
"EPHA4 (Homo sapiens, UniProt P54764)",94.4
"BLK (Homo sapiens, UniProt P51451)",103
"RPS6KA5 (Homo sapiens, UniProt O75582)",104
"DYRK3 (Homo sapiens, UniProt O43781)",99.9
"HIPK4 (Homo sapiens, UniProt Q8NE63)",101
"SRMS (Homo sapiens, UniProt Q9H3Y6)",93.4
"EPHB1 (Homo sapiens, UniProt P54762)",105
"EPHB4 (Homo sapiens, UniProt P54760)",90.6
"Cyclin-dependent kinase 4, with cyclin D3 (CDK4, Homo sapiens, UniProt P11802)",98.4
"STK17A (Homo sapiens, UniProt Q9UEE5)",98.7
"CAMK2B (Homo sapiens, UniProt Q13554)",100
"RPS6KA6 (Homo sapiens, UniProt Q9UK32)",94.2
"HIPK2 (Homo sapiens, UniProt Q9H2X6)",102
"AXL (Homo sapiens, UniProt P30530)",101
"Cyclin-dependent kinase 1, with cyclin B (CDK1, Homo sapiens, UniProt P06493)",92.5

# Block 2 — read-out: enzyme activity; mode: inhibitor; concentration: 10 µM
# Target: Calcium/calmodulin-dependent protein kinase type II subunit alpha (CAMK2A, Homo sapiens, UniProt Q9UQM7)
# Sequence of UniProt Q9UQM7 (whole entry, looked up): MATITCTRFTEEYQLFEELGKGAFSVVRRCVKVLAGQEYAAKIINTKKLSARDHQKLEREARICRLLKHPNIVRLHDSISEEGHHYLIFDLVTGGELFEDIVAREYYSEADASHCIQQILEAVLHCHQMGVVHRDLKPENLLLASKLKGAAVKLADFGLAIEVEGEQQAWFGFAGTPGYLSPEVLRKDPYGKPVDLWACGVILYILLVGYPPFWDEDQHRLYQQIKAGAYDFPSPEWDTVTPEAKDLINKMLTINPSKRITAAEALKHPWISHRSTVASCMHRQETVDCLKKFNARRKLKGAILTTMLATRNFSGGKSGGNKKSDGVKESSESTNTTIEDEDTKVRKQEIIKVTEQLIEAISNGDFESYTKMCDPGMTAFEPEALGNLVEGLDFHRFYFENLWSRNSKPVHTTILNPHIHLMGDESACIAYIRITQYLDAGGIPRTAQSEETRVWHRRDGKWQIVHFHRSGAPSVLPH
Structure (SMILES),inhibition
COc1cc(O)c2c(=O)c3c(O[C@@H]4O[C@H](CO)[C@@H](O)[C@H](O)[C@H]4O)ccc(O)c3oc2c1,-6%
O=C(O)C1=CO[C@@H](O[C@@H]2O[C@H](CO)[C@@H](O)[C@H](O)[C@H]2O)[C@@H]2C(CO)=C[C@H](O)[C@H]12,2%
Clc1ccc2nsnc2c1NC1=NCCN1,-5%
C[C@H](N)C(=O)N1CCC[C@H]1C(=O)NCC(=O)N1CCC[C@H]1C(=O)N[C@@H](CCCN=C(N)N)C(=O)O,-27%
CC(C)CCC[C@@H](C)[C@H]1CC[C@H]2[C@@H]3[C@H](O)C=C4C[C@@H](O)CC[C@]4(C)[C@H]3CC[C@]12C,-4%
COc1cc(O)c(CC=C(C)C)c2c1C(=O)CC(c1ccc(O)cc1)O2 (stereo not drawn),-0.02%
O=C(O)[C@H]1CCCCN1,-46%
COc1cc(/C=C/C(=O)OC[C@H]2O[C@H](O[C@]3(CO)O[C@H](CO)[C@@H](O)[C@@H]3OC(=O)/C=C/c3cc(OC)c(O)c(OC)c3)[C@H](O)[C@@H](O)[C@@H]2O)cc(OC)c1O,-2%
CC(C)OC(=O)CCC/C=C\C[C@@H]1[C@@H](/C=C/[C@@H](O)COc2cccc(C(F)(F)F)c2)[C@H](O)C[C@@H]1O,0%
COc1cc2ccc(=O)oc2c(OC)c1O,-11%
CC(=O)O[C@H]1CC[C@H]2[C@@H]3CCc4cc(O)ccc4[C@H]3CC[C@]12C,1%
OCc1cn[nH]c1,-30%
Nc1nc(-n2cc(C(=O)O)c(=O)c3cc(F)c(N4CC(O)C4)c(Cl)c32)c(F)cc1F,4%
O=c1[nH]c2ccccc2c(-c2cccc(O)c2)c1O,27%
COc1cc(-c2cc(=O)c3c(O)c(OC)c(O)cc3o2)ccc1O,11%
CC(CC(=O)CC(C)(O)[C@H]1CC(=O)[C@@]2(C)C3=C(C(=O)C[C@]12C)[C@@]1(C)CCC(=O)C(C)(C)[C@@H]1C[C@@H]3O)C(=O)O (stereo partly drawn),-21%

# Block 3 — organism: Toxoplasma gondii; read-out: parasite growth; method: drug-repurposing HTS, FLUC reporter; concentration: concentration not given
SMILES,activity
Oc1c(Cl)cc(Cl)c2cccnc12,inactive
C[C@H]1[C@H](OC(=O)CCC(=O)O)O[C@@H]2O[C@@]3(C)CC[C@H]4[C@H](C)CC[C@@H]1[C@@]24OO3,active
CCCCCCNC(=O)n1cc(F)c(=O)[nH]c1=O,active
O=c1c(-c2ccccc2)c1-c1ccccc1,inactive
CN1CCCC(n2nc(Cc3ccc(Cl)cc3)c3ccccc3c2=O)CC1 (stereo not drawn),inactive
Cl.O=C1[C@H]2CCCC[C@H]2C(=O)N1CCCCN1CCN(c2nsc3ccccc23)CC1,inactive
COc1cc(NC(C)CCCN)c2ncccc2c1.O=P(O)(O)O.O=P(O)(O)O (stereo not drawn),inactive
OCCN1CCN(CCCN2c3ccccc3Sc3ccc(Cl)cc32)CC1,active
O=c1[nH]cc(F)c(=O)[nH]1,active
CN1CCN(CC/C=C2/c3ccccc3Sc3ccc(S(=O)(=O)N(C)C)cc32)CC1,inactive
[H]/N=C(/NCCCCC)N/N=C/c1c[nH]c2ccc(OC)cc12,inactive
CC(C)/N=c1\cc2n(-c3ccc(Cl)cc3)c3ccccc3nc-2cc1Nc1ccc(Cl)cc1,active
CCN(CC)C(=S)SSC(=S)N(CC)CC,inactive
COc1cc2nc(N3CCN(C(=O)c4ccco4)CC3)nc(N)c2cc1OC,inactive

# Block 4 — read-out: cell-free assay; method: competition with immobilised ligand; concentration: 1 µM
# Compound: CCCCN(CCCC)C(=O)CN1C[C@H](c2cc(OC)c3c(c2)OCO3)[C@@H](C(=O)O)[C@@H]1CC(C)(C)CCC
target,remaining binding
"Tyrosine-protein kinase ABL1, phosphorylated (ABL1, Homo sapiens, UniProt P00519, T315I)",80.7%
"NEK1 (Homo sapiens, UniProt Q96PY6)",100%
"PRKCD (Homo sapiens, UniProt Q05655)",100%
"CAMKK2 (Homo sapiens, UniProt Q96RR4)",100%
"Ribosomal protein S6 kinase alpha-4, C-terminal kinase domain (RPS6KA4, Homo sapiens, UniProt O75676)",75%
"MAP2K3 (Homo sapiens, UniProt P46734)",57.5%
"TLK2 (Homo sapiens, UniProt Q86UE8)",100%
"MAP3K7 (Homo sapiens, UniProt O43318)",85.5%
"MET (Homo sapiens, UniProt P08581)",100%
"ACVR1 (Homo sapiens, UniProt Q04771)",100%
"BLK (Homo sapiens, UniProt P51451)",95.8%
"PAK1 (Homo sapiens, UniProt Q13153)",100%
"FES (Homo sapiens, UniProt P07332)",100%
"PRKAA1 (Homo sapiens, UniProt Q13131)",100%
"Cyclin-dependent kinase 4, with cyclin D3 (CDK4, Homo sapiens, UniProt P11802)",100%

# A few entries again (block 1):
target,remaining activity [%]
"STK16 (Homo sapiens, UniProt O75716)",81.8
"MAP4K4 (Homo sapiens, UniProt O95819)",104
"MAPKAPK3 (Homo sapiens, UniProt Q16644)",98
"PDPK1 (Homo sapiens, UniProt O15530)",98.3
"EPHA4 (Homo sapiens, UniProt P54764)",94.4
"BLK (Homo sapiens, UniProt P51451)",103
